Measured values of several laboratories.
Lines come from different studies, so protocols differ.
ABL1 H396P phosphorylated: Tyrosine-protein kinase ABL1, phosphorylated (ABL1, Homo sapiens, UniProt P00519, H396P)
ABL1 M351T phosphorylated: Tyrosine-protein kinase ABL1, phosphorylated (ABL1, Homo sapiens, UniProt P00519, M351T)
UniProt P21675, sequence (whole entry, looked up): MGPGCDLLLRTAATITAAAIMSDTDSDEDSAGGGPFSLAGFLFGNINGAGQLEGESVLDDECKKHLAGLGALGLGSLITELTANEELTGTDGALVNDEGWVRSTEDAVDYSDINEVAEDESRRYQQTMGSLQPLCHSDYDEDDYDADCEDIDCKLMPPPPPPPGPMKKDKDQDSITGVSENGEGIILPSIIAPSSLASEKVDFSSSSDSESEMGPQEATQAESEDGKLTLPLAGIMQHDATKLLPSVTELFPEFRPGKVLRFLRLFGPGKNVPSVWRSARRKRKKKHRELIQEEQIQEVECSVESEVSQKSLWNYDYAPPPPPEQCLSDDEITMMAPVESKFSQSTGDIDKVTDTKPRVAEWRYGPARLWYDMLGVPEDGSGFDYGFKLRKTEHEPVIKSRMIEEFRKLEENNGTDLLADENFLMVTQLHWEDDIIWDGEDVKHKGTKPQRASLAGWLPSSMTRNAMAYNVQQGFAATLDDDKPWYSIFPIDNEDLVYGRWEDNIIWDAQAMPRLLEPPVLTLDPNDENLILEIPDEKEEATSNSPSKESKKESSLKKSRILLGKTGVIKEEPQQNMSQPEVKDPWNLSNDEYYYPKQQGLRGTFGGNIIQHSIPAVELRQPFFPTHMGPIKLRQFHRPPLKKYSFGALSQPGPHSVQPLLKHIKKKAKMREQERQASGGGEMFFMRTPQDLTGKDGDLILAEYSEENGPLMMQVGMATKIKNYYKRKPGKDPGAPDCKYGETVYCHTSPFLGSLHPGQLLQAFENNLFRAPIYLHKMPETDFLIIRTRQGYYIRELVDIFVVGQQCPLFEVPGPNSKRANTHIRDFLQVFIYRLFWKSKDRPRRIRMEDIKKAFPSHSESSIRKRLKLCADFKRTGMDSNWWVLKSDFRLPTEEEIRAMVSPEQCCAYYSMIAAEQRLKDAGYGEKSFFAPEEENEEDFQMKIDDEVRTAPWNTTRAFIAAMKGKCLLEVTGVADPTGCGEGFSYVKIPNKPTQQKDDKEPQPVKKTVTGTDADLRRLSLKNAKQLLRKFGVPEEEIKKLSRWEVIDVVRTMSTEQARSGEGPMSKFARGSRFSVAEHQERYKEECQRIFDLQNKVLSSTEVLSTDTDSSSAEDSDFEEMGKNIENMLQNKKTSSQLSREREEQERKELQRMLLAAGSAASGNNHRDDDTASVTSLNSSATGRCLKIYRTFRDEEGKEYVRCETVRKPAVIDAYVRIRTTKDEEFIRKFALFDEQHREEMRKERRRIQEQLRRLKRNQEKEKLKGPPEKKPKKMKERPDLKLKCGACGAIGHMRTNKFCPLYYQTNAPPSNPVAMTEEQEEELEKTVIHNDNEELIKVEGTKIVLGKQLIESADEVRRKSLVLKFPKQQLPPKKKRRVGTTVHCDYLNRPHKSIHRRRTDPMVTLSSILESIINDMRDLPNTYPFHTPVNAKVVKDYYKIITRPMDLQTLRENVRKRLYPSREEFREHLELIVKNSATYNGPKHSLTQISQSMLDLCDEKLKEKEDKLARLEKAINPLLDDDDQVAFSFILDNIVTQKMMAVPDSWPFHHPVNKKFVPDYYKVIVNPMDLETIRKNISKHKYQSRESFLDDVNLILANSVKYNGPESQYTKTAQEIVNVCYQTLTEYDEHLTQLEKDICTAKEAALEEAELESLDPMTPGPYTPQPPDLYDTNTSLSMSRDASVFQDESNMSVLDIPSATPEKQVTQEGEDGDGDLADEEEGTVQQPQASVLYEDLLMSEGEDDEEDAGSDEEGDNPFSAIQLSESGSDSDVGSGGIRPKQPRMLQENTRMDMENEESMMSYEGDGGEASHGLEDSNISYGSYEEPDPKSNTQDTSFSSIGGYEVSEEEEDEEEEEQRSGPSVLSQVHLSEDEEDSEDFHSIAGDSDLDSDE

Structure (SMILES)	target	observed	method	concentration	relative to	remaining binding
COc1cc(Nc2nccc(-c3cnn4nc(OC)ccc34)n2)cc(C(F)(F)F)c1	ABL1 H396P phosphorylated	binding		1 µM		100%
CCN1CCN(Cc2ccc(C(=O)Nc3ccc(C)c(NCc4cnc5[nH]ccc5c4OC)c3)cc2C(F)(F)F)CC1	Tyrosine-protein kinase ABL1, phosphorylated (ABL1, Homo sapiens, UniProt P00519, F317L)	binding	competition with immobilised ligand	1 µM		0.8%
CNC1C[S+]2CC[S+]3CC[S+](C1)[Ru-4]321([N]=C=S)[n]2c3ccc(OC)cc3c3c4c(c5cc(F)c[n+]1c5c32)C(=O)NC4=O (centres unmarked)	ABL1 M351T phosphorylated		KinomeScan	0.1 µM	untreated	100%
Cc1cnc2nc1Nc1cccc(c1)COC/C=C/COCc1cc(ccc1OCCN1CCOCC1)N2	EGFR (Homo sapiens, UniProt P00533, L861Q)	binding		0.1 µM		93%
CC(=O)N1c2ccc(-c3ccc(CNC(=O)c4cn5cc(-c6cnc(N)nc6)nc(N6CCOCC6)c5n4)cc3)cc2CC[C@@H]1C	Transcription initiation factor TFIID subunit 1, BD2 (TAF1, Homo sapiens, UniProt P21675)	binding	competition with immobilised ligand	10 µM		3.1%
CC(C)=CC1OC(C)(C)C2C=C3C(=O)C(Cl)=CC(O)C3C3C(O)C4OC4C(=O)C132 (centres unmarked)	ABL1 M351T phosphorylated	cell-free assay	competition with immobilised ligand	10 µM		78%
CNC(=O)C1CCN(c2cc(C)c(F)cc2NC(=O)c2ccc(-c3cc(O)ccc3C)c(C)c2)CC1	ABL1 H396P phosphorylated	binding	competition with immobilised ligand	1 µM		22%
Cn1cc(-c2cc(N3CCCCS3(=O)=O)ccc2N[C@H]2CC[C@H](C)CC2)c2cc[nH]c2c1=O (stereo in doubt)	BPTF (Homo sapiens, UniProt Q12830)	binding	competition with immobilised ligand	1 µM		100%

Excerpt of the above:
Structure (SMILES)	target	observed	method	concentration	relative to	remaining binding
CNC1C[S+]2CC[S+]3CC[S+](C1)[Ru-4]321([N]=C=S)[n]2c3ccc(OC)cc3c3c4c(c5cc(F)c[n+]1c5c32)C(=O)NC4=O (centres unmarked)	ABL1 M351T phosphorylated		KinomeScan	0.1 µM	untreated	100%
